# Measured values of several laboratories.
# Lines come from different studies, so protocols differ. Numbers after ± are the reported error.
# Target: Acetylcholinesterase (ACHE, Homo sapiens, UniProt P22303)
# Chain of UniProt P22303 (whole entry, looked up): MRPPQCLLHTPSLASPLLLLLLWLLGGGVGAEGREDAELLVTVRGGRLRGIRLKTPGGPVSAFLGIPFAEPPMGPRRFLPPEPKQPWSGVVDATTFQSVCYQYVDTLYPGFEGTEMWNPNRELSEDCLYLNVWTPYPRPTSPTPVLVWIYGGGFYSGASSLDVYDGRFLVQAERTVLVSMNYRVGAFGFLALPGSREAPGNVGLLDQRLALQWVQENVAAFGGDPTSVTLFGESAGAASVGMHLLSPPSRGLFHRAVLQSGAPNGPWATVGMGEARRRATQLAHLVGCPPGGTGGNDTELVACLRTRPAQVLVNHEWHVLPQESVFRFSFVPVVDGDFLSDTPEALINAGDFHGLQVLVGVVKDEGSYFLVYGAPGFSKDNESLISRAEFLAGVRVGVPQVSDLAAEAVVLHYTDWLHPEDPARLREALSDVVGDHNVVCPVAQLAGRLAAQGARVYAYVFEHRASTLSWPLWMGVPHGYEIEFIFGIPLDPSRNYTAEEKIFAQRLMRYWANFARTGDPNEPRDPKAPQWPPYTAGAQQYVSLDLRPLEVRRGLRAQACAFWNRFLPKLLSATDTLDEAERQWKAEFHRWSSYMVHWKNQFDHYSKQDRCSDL
Compound,test,endpoint,result
COc1cc2c(cc1OC)C(=O)/C(=C\c1ccc(N3CCCC3)cc1)C2,"enzyme activity, inhibitor",Ki,78 µM
Cc1cc(O)c2c(c1)C(=O)c1c(O)ccc(O)c1C2=O,"enzyme activity, inhibitor",Ki,10.3 µM
CCN(CC)CCCCCOc1ccc2occc(=O)c2c1,"enzyme activity, inhibitor, Ellman",Ki,1.61 µM
O=C1c2c(O)cc(O)cc2OC2(c3ccc(O)c(O)c3)Oc3cc(O)c4c(=O)c(O)c(-c5ccc(O)c(O)c5)oc4c3C12O (racemic),,IC50,6.74 ± 0.04 µM
COc1cc2c(cc1OC)C(=O)/C(=C\c1ccc(-n3cccn3)cc1)C2,"enzyme activity, inhibitor",Ki,13 µM
O=c1ccoc2ccc(OCCCCCN3CCCCCC3)cc12,"enzyme activity, inhibitor, Ellman",Ki,4.7 µM
O=c1c(O)c(-c2ccc(O)cc2)oc2c(Cc3c(O)cc(O)c4c(=O)c(O)c(-c5ccc(O)cc5)oc34)c(O)cc(O)c12,"enzyme activity, inhibitor, Ellman",IC50,1.42 µM
O=c1ccoc2ccc(OCCCCCN3CCCCC3)cc12,"enzyme activity, inhibitor, Ellman",Ki,1.26 µM
COc1cc(/C=C/C(=O)CC(=O)/C=C/c2ccc(OC(=O)CCc3c[nH]c4ccccc34)c(OC)c2)ccc1OC(=O)CCc1c[nH]c2ccccc12,"enzyme activity, inhibitor",Ki,47.1 µM
COc1cc2c(cc1OC)C(=O)/C(=C\c1ccc(N3CCOCC3)cc1)C2,"enzyme activity, inhibitor",Ki,47 µM

# A few entries again:
Compound,test,endpoint,result
COc1cc(/C=C/C(=O)CC(=O)/C=C/c2ccc(OC(=O)CCc3c[nH]c4ccccc34)c(OC)c2)ccc1OC(=O)CCc1c[nH]c2ccccc12,"enzyme activity, inhibitor",Ki,47.1 µM
